Experimental data of several laboratories.
Sequence of UniProt O15530 (whole entry, looked up): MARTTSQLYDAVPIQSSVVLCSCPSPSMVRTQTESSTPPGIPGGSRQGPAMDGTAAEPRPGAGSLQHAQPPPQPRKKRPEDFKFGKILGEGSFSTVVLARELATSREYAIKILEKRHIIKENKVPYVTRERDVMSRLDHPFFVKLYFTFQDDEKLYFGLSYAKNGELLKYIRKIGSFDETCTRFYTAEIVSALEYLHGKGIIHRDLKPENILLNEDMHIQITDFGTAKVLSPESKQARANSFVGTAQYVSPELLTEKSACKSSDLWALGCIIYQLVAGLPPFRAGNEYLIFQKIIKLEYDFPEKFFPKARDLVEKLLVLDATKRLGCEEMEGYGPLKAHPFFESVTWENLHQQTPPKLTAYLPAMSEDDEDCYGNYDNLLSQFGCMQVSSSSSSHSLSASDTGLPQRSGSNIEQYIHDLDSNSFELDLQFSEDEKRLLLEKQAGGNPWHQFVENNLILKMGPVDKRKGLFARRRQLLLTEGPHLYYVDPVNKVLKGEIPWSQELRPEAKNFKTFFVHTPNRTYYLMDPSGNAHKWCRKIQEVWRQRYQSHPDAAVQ
Sequence of UniProt Q2M2I8 (whole entry, looked up): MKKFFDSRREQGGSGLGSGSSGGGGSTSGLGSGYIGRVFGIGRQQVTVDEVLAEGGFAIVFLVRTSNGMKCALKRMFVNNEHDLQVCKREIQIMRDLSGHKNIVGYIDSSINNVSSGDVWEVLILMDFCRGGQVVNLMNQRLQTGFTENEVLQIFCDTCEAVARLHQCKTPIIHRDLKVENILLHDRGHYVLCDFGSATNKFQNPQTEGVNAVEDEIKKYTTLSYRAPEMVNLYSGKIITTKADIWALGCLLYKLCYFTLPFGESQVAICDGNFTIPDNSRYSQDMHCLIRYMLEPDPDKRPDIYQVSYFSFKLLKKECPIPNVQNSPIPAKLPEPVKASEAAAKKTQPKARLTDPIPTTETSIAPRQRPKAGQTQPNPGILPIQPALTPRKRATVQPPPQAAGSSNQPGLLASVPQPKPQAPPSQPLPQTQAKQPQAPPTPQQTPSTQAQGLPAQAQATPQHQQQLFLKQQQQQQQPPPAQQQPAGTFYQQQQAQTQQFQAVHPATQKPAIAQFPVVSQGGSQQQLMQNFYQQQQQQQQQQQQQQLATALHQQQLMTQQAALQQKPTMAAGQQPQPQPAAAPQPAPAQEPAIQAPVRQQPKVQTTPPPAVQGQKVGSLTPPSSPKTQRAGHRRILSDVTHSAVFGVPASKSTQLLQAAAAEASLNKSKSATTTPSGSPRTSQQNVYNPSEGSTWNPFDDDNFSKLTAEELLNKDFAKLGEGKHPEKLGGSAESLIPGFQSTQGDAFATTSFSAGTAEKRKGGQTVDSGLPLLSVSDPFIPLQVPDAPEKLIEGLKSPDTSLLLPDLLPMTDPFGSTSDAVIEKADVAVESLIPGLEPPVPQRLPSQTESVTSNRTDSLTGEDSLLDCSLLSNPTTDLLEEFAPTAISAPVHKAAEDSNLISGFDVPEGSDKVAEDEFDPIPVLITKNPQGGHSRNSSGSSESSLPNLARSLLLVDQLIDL
Sequence of UniProt Q6WQJ1 (whole entry, looked up): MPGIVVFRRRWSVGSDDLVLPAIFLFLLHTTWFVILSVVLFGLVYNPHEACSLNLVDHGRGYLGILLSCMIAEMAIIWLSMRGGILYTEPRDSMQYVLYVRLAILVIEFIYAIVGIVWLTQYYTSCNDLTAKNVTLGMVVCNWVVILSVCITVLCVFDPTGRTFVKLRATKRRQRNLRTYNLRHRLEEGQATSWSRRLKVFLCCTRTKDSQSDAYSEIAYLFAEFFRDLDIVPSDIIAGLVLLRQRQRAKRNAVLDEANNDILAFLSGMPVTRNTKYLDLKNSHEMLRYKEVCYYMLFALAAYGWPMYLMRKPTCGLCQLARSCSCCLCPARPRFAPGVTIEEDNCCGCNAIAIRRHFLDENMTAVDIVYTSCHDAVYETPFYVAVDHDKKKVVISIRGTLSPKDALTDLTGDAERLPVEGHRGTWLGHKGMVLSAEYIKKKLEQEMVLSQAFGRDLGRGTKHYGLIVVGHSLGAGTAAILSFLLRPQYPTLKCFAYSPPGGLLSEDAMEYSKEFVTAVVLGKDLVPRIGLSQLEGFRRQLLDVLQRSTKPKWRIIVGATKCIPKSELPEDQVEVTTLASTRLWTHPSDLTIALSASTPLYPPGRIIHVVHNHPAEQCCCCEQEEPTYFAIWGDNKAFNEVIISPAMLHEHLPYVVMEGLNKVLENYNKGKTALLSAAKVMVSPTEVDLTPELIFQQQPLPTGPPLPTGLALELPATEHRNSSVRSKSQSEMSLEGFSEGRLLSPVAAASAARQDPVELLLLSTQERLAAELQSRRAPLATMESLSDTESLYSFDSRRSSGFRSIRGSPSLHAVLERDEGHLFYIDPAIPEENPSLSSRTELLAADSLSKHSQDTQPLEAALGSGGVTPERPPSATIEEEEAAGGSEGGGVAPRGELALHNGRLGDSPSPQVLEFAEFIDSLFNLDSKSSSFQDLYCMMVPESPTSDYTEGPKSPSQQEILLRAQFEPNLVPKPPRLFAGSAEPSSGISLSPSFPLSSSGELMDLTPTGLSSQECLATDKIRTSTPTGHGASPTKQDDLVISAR
Sequence of UniProt Q6ZWH5 (whole entry, looked up): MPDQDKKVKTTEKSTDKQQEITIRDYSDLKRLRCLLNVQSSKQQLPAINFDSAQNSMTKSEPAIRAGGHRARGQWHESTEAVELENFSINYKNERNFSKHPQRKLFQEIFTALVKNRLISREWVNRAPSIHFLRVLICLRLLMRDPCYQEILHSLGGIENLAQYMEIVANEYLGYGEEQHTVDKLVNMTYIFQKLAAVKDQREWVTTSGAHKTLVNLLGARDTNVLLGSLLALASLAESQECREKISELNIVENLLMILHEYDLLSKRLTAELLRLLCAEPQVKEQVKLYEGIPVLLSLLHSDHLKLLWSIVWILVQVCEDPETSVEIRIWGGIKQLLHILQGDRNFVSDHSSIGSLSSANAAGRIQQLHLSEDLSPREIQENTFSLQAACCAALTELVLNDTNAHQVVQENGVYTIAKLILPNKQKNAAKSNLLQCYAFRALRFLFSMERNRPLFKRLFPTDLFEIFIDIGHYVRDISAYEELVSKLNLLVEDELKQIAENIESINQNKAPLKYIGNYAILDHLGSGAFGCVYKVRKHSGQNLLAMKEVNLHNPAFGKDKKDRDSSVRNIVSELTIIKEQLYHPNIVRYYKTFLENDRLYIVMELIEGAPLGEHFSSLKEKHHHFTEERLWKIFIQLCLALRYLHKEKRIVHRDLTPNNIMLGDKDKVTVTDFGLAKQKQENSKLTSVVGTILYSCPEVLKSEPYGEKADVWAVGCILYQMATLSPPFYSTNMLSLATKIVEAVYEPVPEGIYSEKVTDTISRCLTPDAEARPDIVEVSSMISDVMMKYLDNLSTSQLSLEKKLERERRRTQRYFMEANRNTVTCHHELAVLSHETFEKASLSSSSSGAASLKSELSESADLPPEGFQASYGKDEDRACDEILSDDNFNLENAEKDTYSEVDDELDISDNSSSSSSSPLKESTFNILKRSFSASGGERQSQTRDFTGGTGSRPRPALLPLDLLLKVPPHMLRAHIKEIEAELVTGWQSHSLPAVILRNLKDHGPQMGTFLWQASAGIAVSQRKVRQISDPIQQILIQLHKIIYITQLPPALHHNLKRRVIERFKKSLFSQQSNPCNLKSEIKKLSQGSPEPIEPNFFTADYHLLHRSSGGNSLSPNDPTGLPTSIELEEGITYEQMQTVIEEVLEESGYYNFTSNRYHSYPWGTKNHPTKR
Sequence of UniProt P21802 (whole entry, looked up): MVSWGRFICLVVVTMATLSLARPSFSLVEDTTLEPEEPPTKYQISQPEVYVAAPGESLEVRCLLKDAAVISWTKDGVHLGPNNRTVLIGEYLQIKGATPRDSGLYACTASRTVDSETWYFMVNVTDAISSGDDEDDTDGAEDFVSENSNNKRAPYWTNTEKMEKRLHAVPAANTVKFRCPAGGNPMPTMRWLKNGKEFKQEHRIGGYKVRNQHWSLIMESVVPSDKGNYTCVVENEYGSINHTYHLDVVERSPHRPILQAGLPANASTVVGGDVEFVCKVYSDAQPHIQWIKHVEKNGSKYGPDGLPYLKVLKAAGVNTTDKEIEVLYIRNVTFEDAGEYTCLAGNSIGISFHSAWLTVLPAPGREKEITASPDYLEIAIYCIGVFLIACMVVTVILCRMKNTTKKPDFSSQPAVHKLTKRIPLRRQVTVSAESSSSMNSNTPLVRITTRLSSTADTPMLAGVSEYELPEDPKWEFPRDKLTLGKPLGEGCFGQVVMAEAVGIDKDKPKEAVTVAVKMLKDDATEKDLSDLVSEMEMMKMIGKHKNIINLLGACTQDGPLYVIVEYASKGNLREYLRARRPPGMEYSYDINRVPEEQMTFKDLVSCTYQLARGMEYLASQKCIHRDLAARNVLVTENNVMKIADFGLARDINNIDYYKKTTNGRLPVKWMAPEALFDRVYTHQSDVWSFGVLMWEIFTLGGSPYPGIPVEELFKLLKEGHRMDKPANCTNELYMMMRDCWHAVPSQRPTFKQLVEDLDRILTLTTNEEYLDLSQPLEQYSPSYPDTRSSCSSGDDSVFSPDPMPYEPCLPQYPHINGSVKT
Sequence of UniProt P51955 (whole entry, looked up): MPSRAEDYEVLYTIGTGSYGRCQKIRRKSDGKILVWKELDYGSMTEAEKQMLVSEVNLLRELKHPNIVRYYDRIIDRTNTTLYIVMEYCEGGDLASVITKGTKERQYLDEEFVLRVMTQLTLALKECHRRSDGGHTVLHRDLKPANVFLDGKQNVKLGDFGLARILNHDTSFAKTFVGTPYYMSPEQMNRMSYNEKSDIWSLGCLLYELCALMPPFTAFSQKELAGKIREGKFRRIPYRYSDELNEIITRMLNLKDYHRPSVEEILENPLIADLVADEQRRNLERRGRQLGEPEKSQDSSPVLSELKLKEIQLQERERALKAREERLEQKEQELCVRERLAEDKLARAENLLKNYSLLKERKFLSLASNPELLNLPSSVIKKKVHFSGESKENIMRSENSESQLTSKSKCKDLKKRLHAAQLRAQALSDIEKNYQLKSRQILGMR

Structure (SMILES) | target | assay | test system | setting | quantity | value
COc1ccc2[nH]cc(CCNC(C)=O)c2c1I | MTNR1B (Homo sapiens, UniProt P49286) | cAMP, agonist, TR-FRET | CHO-K1 | 20 min | Emax | 90%
C#CCO[C@@H]1CC[C@H](Cc2ccccc2)N(C(=O)n2ncc(C(O)(c3ccc(F)cc3)c3ccc(F)cc3)n2)C1 | Diacylglycerol lipase-alpha (Mus musculus, UniProt Q6WQJ1) | enzyme activity, inhibitor |  |  | kinact | 0.000967 s⁻¹
C1=C/COCc2cc(ccc2OCCN2CCCC2)Nc2nccc(n2)-c2cccc(c2)COC/1 | PIK3CA (Homo sapiens, UniProt P42336, E545K) | binding |  | 0.1 µM | remaining binding | 56%
Nc1ncnc2occ(-c3ccc(NC(=O)Nc4cc(C(F)(F)F)ccc4F)cc3)c12 | NEK10 (Homo sapiens, UniProt Q6ZWH5) | cell-free assay, inhibitor |  | 20 µM | remaining signal | 3.2%
COc1cc(-c2cncc3c2CN(C)Cc2cc(N4CCNCC4)ccc2-3)cc(OC)c1OC | AAK1 (Homo sapiens, UniProt Q2M2I8) | enzyme activity, inhibitor |  | 1 µM | remaining activity | 95%
C=CC(=O)N1CCC(COCC(=O)N2CCN(c3nc(-c4cnc(N)nc4C(F)F)nc(N4CCOC[C@@H]4C)n3)CC2)CC1 | PIM1 (Homo sapiens, UniProt P11309) | binding, competition with immobilised ligand |  | 1 µM | remaining binding | 100%
CN(C)c1nccc(-c2cnn3ncccc23)n1 | CDPK1 (Plasmodium falciparum, UniProt P62344) | binding |  | 1 µM | remaining binding | 100%
NC/C(=C\F)COc1cccc(Cn2c(=S)[nH]c(=O)c3[nH]cnc32)c1 | Myeloperoxidase (MPO, Homo sapiens, UniProt P05164) | enzyme activity, inhibitor |  | 28 nM | remaining activity | 109%
Cc1cc([C@@H](C)Nc2ccccc2C(=O)O)c2nc(N3CCC(F)(F)CC3)c(C#N)c(=O)n2c1 | PDPK1 (Homo sapiens, UniProt O15530) | binding, competition with immobilised ligand |  | 10 µM | remaining binding | 100%
CNc1ncc2c(/C=C/C(=O)N3CCC(OC)CC3)nn(Cc3cccc(C(F)(F)F)c3)c2n1 | FGFR2 (Homo sapiens, UniProt P21802) | enzyme activity, inhibitor, radiometric |  | 1 µM | remaining activity | 77%
CCCCC(=O)Nc1ccc(-c2ccc3ncn(CCC)c(=O)c3c2)cn1 | NEK2 (Homo sapiens, UniProt P51955) | binding, competition with immobilised ligand |  | 0.5 µM | remaining binding | 100%

For quick reference, copied from above:
Structure (SMILES) | target | assay | test system | setting | quantity | value
COc1cc(-c2cncc3c2CN(C)Cc2cc(N4CCNCC4)ccc2-3)cc(OC)c1OC | AAK1 (Homo sapiens, UniProt Q2M2I8) | enzyme activity, inhibitor |  | 1 µM | remaining activity | 95%
